Results gathered from unrelated publications.
Each line is one published result; not all experiments were run side by side. “And” joins repeats or separate records; there may be more than shown. Numbers after ± are the reported error.
rep main protease: Replicase polyprotein 1ab, main protease (rep, Severe acute respiratory syndrome coronavirus 2, UniProt P0DTD1)
rep nsp13 helicase: Replicase polyprotein 1ab, nsp13 helicase (rep, Severe acute respiratory syndrome coronavirus 2, UniProt P0DTD1)
rep methyltransferase: Replicase polyprotein 1ab, methyltransferase (rep, Severe acute respiratory syndrome coronavirus 2, UniProt P0DTD1)
rep papain-like protease: Replicase polyprotein 1ab, papain-like protease (rep, Severe acute respiratory syndrome coronavirus 2, UniProt P0DTD1)
rep nsp16 with nsp10: Replicase polyprotein 1ab, nsp16 with nsp10 (rep, Severe acute respiratory syndrome coronavirus 2, UniProt P0DTD1)

Structure (SMILES) = CCCCCCCCCCCCC[C@@H](O)Cc1cc(O)cc(O)c1; target = rep main protease; test = enzyme activity, inhibitor; conditions = with preincubation; IC50 = > 100000 nM
Structure (SMILES) = COc1cc(/C=C/C(=O)O)ccc1O; target = rep nsp13 helicase; test = helicase unwinding activity; IC50 = > 30000 nM
Structure (SMILES) = CC[C@@H](C)[C@@H](C(=O)OC)n1[se]c2ccccc2c1=O; target = rep main protease; test = enzyme activity, inhibitor; IC50 = 87.6 nM
Structure (SMILES) = CN(C)CCNC(=O)C[C@H](Cc1ccc(F)cc1)NC(=O)[C@@H](Cc1ccc(Cl)cc1Cl)NC(=O)[C@H](N)Cc1ccccc1C#N; target = rep main protease; test = enzyme activity, inhibitor, fluorescence; IC50 = 70 nM
Structure (SMILES) = CC(=O)Oc1ccc(/C=C/C(=O)O[C@@H]2Cc3c(O)cc(O)cc3O[C@@H]2c2cc(O)c(O)c(O)c2)cc1; target = rep main protease; test = enzyme activity, inhibitor, FRET; IC50 = 32000 nM
Structure (SMILES) = O=c1c2ccccc2sn1-c1ccccc1; target = rep main protease; test = enzyme activity, inhibitor; conditions = 0 min preincubation; IC50 = 170 ± 20 nM
Structure (SMILES) = CNc1nc(NC(CCO)c2ccccc2Cl)nc(N2CCN(C(=O)CCl)C(C)C2)n1 (stereo not shown); target = rep main protease; test = enzyme activity, inhibitor; IC50 = 1670 nM
Structure (SMILES) = Brc1c(Br)c(Br)c2[nH]nnc2c1Br; target = rep methyltransferase; test = enzyme activity, inhibitor; conditions = pH 7.5; IC50 = < 10000 nM and 9900 nM
Structure (SMILES) = C#Cc1cccc(CCNC(=O)[C@@H](c2cncnc2)N(C(=O)[C@H](F)Cl)c2ccc(S(F)(F)(F)(F)F)cc2)c1; target = rep main protease; test = enzyme activity, inhibitor; IC50 = 110 nM
Structure (SMILES) = COc1cc(C(O)C(N)CO)ccc1O (stereo not shown); target = rep main protease; test = enzyme activity, inhibitor, FRET; IC50 = 476 ± 20 nM
Structure (SMILES) = O=C(Nc1ccccc1)c1ccccc1[Se][Se]c1ccccc1C(=O)Nc1ccccc1; target = rep main protease; test = enzyme activity, inhibitor; conditions = Mpro, without DTT; IC50 = 65 nM
Structure (SMILES) = CCC(C(=O)Nc1cccc(F)c1)n1c(SCc2ccc(F)cc2)nc2ncccc21 (stereo not shown); target = rep papain-like protease; test = enzyme activity, inhibitor; IC50 = > 20000 nM
Structure (SMILES) = CCc1n[nH]c(NC(=O)c2ccc3c(c2)nnn3C)n1; target = rep main protease; test = enzyme activity, inhibitor, FRET; IC50 = 26500 nM
Structure (SMILES) = CC(C)CC(NC(=O)OCc1ccccc1)C(=O)NC(CC1CCNC1=O)C(=O)C(=O)NC1CC1 (stereo not shown); target = rep main protease; test = enzyme activity, inhibitor, FRET; conditions = pH 6.5; IC50 = 45 nM
Structure (SMILES) = N#Cc1ccccc1CC(N)C(=O)NC(Cc1ccc(Cl)cc1Cl)C(=O)NC(CC(=O)NCCCCN1CCCC1)Cc1ccc(F)cc1 (stereo not shown); target = rep main protease; test = enzyme activity, inhibitor, fluorescence; IC50 = 20 nM
Structure (SMILES) = Cc1ccc(OCCN(C)C)cc1C(=O)N[C@H](C)c1cc(-c2cnn(C)c2)cc(-c2cnn(C(F)F)c2)c1; target = rep papain-like protease; test = enzyme activity, inhibitor, FRET; IC50 = 98.3 nM
Structure (SMILES) = CCC(C(=O)Nc1ccccc1F)n1cccc2nc(SCc3ccc(F)cc3)nc1-2 (stereo not shown); target = rep papain-like protease; test = enzyme activity, inhibitor; IC50 = 6080 nM
Structure (SMILES) = C=CCn1c(C)cc(C(=O)COn2nnc3ccc(S(=O)(=O)N(C)C)cc32)c1C; target = rep main protease; test = enzyme activity, inhibitor; IC50 = 1670 nM
Structure (SMILES) = CNC(=O)C[C@H](Cc1ccc(F)cc1)NC(=O)[C@@H](Cc1ccc(F)cc1F)NC(=O)[C@H](N)Cc1ccccc1C#N; target = rep main protease; test = enzyme activity, inhibitor, fluorescence; IC50 = 2000 nM
Structure (SMILES) = Oc1cc(O)c2c(c1)OC(c1ccc(O)c(O)c1)C(OC1(c3ccc(O)c(O)c3)Oc3cc(O)cc(O)c3C(O)C1O)C2 (stereo not shown); target = rep papain-like protease; test = enzyme activity, inhibitor, fluorescence; conditions = pH 7.5; IC50 = 2400 nM
Structure (SMILES) = Cc1ccccc1[C@@H](C)N(C)Cc1cc(O)ccc1Cl; target = rep papain-like protease; test = enzyme activity, inhibitor, fluorescence; IC50 = 8190 nM
Structure (SMILES) = O=C(c1ccc(Br)cc1)N1CCC(c2ccn3ncc(C(=O)N4CCCCC4)c3c2)CC1; target = Replicase polyprotein 1ab, nsp3 macrodomain (rep, Severe acute respiratory syndrome coronavirus 2, UniProt P0DTD1); test = ADP-ribose binding, inhibitor, fluorescence polarization; conditions = Mac1 domain, SARS-CoV-2; IC50 = 27600 ± 11100 nM
Structure (SMILES) = CCOC(=O)CC[C@H](NC(=O)c1ccccc1[Se][Se]c1ccccc1C(=O)N[C@@H](CCC(=O)OCC)C(=O)OCC)C(=O)OCC; target = rep main protease; test = enzyme activity, inhibitor; IC50 = 6280 nM
Structure (SMILES) = Nc1ncnc2c1ncn2[C@@H]1O[C@H](CSCc2cc(C(=O)O)cc(-c3cccnc3)c2)[C@@H](O)[C@H]1O; target = rep nsp16 with nsp10; test = methyltransferase activity, inhibitor; conditions = 30 min, 30 °C, together with: SAM 10 µM; IC50 = 8.6 ± 0.4 nM
Structure (SMILES) = Cc1cc(C(=O)O)ccc1C1=NN(c2ccc(C#N)c(Cl)c2)C(C)C1 (stereo not shown); target = rep methyltransferase; test = enzyme activity, inhibitor; IC50 = 1530 nM
Structure (SMILES) = CCC1c2ccsc2CCN1C(=O)c1cn(C2CCNCC2)nn1 (racemic); target = rep main protease; test = enzyme activity, inhibitor; IC50 = > 100000 nM
Structure (SMILES) = CC1=C(c2ccccc2)C1C(=O)NCc1nc(-c2ccc(OC(F)(F)F)cc2)no1 (stereo not shown); target = rep main protease; test = enzyme activity, inhibitor, FRET; IC50 = 19600 nM
Structure (SMILES) = COC(=O)C(NC(=O)CC(O)C(N)Cc1ccccc1)C(C)C (stereo not shown); target = rep papain-like protease; test = enzyme activity, inhibitor, FRET; IC50 = 1460 nM
Structure (SMILES) = O=C(Oc1cncc(Cl)c1)c1cccs1; target = rep main protease; test = enzyme activity, inhibitor; IC50 = 1900 nM
Structure (SMILES) = CC(=O)N[C@@H](Cc1ccc(O)cc1)C(=O)N[C@@H](CCCNC(=N)N)C(=O)N[C@@H](Cc1ccccc1)C(=O)NCCC(=O)N[C@@H](CCCNC(=N)N)C(=O)N[C@@H](CC(N)=O)C(=O)NCCC(=O)N[C@H](C(=O)N[C@@H](Cc1ccccc1)C(=O)NCCC(=O)N[C@@H](Cc1ccccc1)C(=O)N[C@@H](Cc1ccc(O)cc1)C(=O)NCCC(=O)N[C@H](C(=O)N[C@@H](CC(=O)O)C(N)=O)[C@@H](C)O)C(C)C; target = rep main protease; test = enzyme activity, inhibitor; IC50 = > 17000 nM
Structure (SMILES) = CC(C)C[C@H](NC(=O)[C@H](CCCN)NC(=O)[C@@H](NC(=O)[C@@H](N)CCC(N)=O)C(C)C)C(=O)N[C@H](/C=C/S(=O)(=O)c1ccc(O)cc1)C[C@@H]1CCNC1=O; target = rep main protease; test = enzyme activity, inhibitor; conditions = 37 °C, 1 h preincubation; IC50 = 484 ± 21.2 nM
Structure (SMILES) = NC(=O)c1cccc(CCN(CC[C@H](N)C(=O)O)C[C@H]2O[C@@H](n3cnc4c(N)ncnc43)[C@H](O)[C@@H]2O)c1; target = Replicase polyprotein 1ab, nsp14 (rep, Severe acute respiratory syndrome coronavirus 2, UniProt P0DTD1); test = nsp14 methyltransferase activity, inhibitor, radiometric SPA; conditions = 20 min, together with: 3H-SAM 250 nM, RNA 50 nM; IC50 = 260 ± 130 nM
Structure (SMILES) = CCc1ccccc1NC(=S)N/N=C/c1ccc(O)cc1O; target = rep main protease; test = enzyme activity, inhibitor, FRET; IC50 = 2430 nM
Structure (SMILES) = COc1ccc(-c2cc(=O)c3c(O)cc(O)c(-c4cc(-c5cc(=O)c6c(O)cc(OC)cc6o5)ccc4OC)c3o2)cc1; target = rep main protease; test = enzyme activity, inhibitor; conditions = 3 min preincubation; IC50 = 8140 nM
Structure (SMILES) = CCOC(=O)/C=C/[C@H](C[C@@H]1CCNC1=O)NC(=O)[C@H](CC(C)C)NC(=O)[C@@H](NC(=O)OCc1ccccc1)[C@@H](C)OC(C)(C)C; target = rep main protease; test = enzyme activity, inhibitor; IC50 = 149 nM
Structure (SMILES) = CCN1C(=O)CC[C@@H]1c1c(O)cc2c(c1O)C[C@@H](OC(=O)c1cc(O)c(O)c(O)c1)[C@@H](c1ccc(O)c(O)c1)O2; target = rep main protease; test = enzyme activity, inhibitor; IC50 = 46700 nM
Structure (SMILES) = CC(C)(C)NC(=O)C(c1cccnc1)N(C(=O)C(F)Cl)c1ccc(C(C)(C)C)cc1 (single isomer, unassigned); target = rep main protease; test = enzyme activity, inhibitor; IC50 = 2700 nM
Structure (SMILES) = CC(C)=CCc1c(O)cc(O)c2c(=O)cc(-c3ccc(O)cc3)oc12; target = rep nsp13 helicase; test = ATPase activity; conditions = no nucleic acid; IC50 = 24000 nM
Structure (SMILES) = Nc1ncnc2c1ncn2[C@@H]1O[C@H](CSCc2ccc(Cl)cc2Cl)[C@@H](O)[C@H]1O; target = rep nsp16 with nsp10; test = methyltransferase activity, radiometric; conditions = together with: 3H-SAM; IC50 = > 200000 nM
Structure (SMILES) = O=C(c1ccc([N+](=O)[O-])c(-n2ccnc2)c1)N(c1cccc(Cl)c1)c1nc2ccccc2s1; target = rep main protease; test = Rev-Nluc reporter, inhibitor; IC50 = < 50000 nM
Structure (SMILES) = O=C(O)C[C@H](NC(=O)c1ccccc1[Se][Se]c1ccccc1C(=O)N[C@@H](CC(=O)O)C(=O)O)C(=O)O; target = rep main protease; test = enzyme activity, inhibitor; IC50 = 11800 nM
Structure (SMILES) = CN(C)S(=O)(=O)c1ccc2nnn(OCc3cccc4cccnc34)c2c1; target = rep main protease; test = enzyme activity, inhibitor; IC50 = > 100000 nM
Structure (SMILES) = O=C(c1cncc(Br)c1)N1CCN(C(c2ccccc2)c2ccc(Cl)cc2)CC1 (racemic); target = rep main protease; test = enzyme activity, inhibitor; IC50 = 690 nM
Structure (SMILES) = CCOC(=O)ONC(=O)CCc1ccccc1; target = rep main protease; test = enzyme activity, inhibitor, FRET; IC50 = 150 nM
Structure (SMILES) = CN(C)c1ccc(-c2cccc3c2CC(CO)c2c(-c4ccc(Br)cc4)ccc(O)c2-3)nc1 (stereo not shown); target = rep main protease; test = enzyme activity, inhibitor; IC50 = 5500 nM
Structure (SMILES) = C=CC(=O)NC(CC(=C)C)C(=O)N1CC(C(=O)NC(CCSC)C(=O)NC)C(c2cccc(C(F)(F)F)c2)C1 (stereo not shown); target = rep main protease; IC50 = > 100000 nM
